Measured values of several laboratories.
Every numbered part comes from another study and shows a few of its results, in no order. Substitutions count along the parent as printed.

Study 1 — target: CCNB2, cyclin fold, Cln2 fusion (human); technique: yeast growth competition, sequencing; medium: yeast; notes: strong parent motif; relative to: not given; reading: higher = stronger binding
Parent: E2F1 docking peptide (human); PPVKRRLDFETDH
For `R5D`, “normalised enrichment score” read 0.0213.
Under “normalised enrichment score”, `R5Y` is recorded as 0.498.
`R6T` — result for “normalised enrichment score”: 2.48.
`R6E` — result for “normalised enrichment score”: 1.75.
`R6V`: “normalised enrichment score” 2.94.
`T11R`: “normalised enrichment score” 3.16.
Under “normalised enrichment score”, `P2H` is recorded as 2.71.
Under “normalised enrichment score”, `L7E` is recorded as -0.133.
Under “normalised enrichment score”, `D12P` is recorded as 3.38.
`P2Y`: “normalised enrichment score” 2.39.
Under “normalised enrichment score”, `D8F` is recorded as 3.11.
`E10Y` — result for “normalised enrichment score”: 3.
`F9I` — result for “normalised enrichment score”: 0.281.

Study 2 — technique: protein-binding microarray; form: double-stranded DNA, one strand shown; medium: in vitro; concentration: 2200 nM top; notes: 60-bp whole probe; with: salmon DNA 0.4 mg/ml; relative to: random background probes; reading: higher = stronger binding; constant ends, left off below: GCCTAGCAC … GTCTTGATTCGCTTGACGCTGCTG
Target: Interferon regulatory factor 7, full length, phosphomimetic (IRF7, Homo sapiens, UniProt Q92985, residues 1-503, S471D/S472D/S475D/S476D/S477D/S483D/S484D/S487D)
Target sequence (chain): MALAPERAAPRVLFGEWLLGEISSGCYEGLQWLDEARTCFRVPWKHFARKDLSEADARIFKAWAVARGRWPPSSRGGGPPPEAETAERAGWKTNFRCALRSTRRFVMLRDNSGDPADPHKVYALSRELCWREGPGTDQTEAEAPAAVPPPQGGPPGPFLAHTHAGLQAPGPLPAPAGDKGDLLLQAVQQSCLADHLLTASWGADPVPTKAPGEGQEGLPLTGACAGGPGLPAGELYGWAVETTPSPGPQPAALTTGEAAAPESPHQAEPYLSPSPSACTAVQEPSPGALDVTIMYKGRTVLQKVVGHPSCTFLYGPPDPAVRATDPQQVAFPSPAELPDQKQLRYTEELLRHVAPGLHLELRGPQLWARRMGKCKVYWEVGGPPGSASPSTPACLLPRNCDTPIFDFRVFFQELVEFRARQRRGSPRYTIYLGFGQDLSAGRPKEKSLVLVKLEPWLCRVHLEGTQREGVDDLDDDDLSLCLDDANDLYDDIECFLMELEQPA
`GACGGTCACGGTATCGGGACGTGCTAG`: “fitted relative affinity” -0.844 z-score.
`TTAGAACTGGGGACTGGATTAGTGCTA` — result for “fitted relative affinity”: -0.52 z-score.
Under “fitted relative affinity”, `TTGGGTATCCTTATCCTTTAGTGCTAG` is recorded as 0.752 z-score.
`TCACATTTTGGTTTTCCACTGTGCTAG`: “fitted relative affinity” 2.94 z-score.
`TTAGATTTCAGTATTGATTAGTGCTAG`: “fitted relative affinity” 0.466 z-score.
For `GACTGACTGCTACTGCTGACGTGCTAG`, “fitted relative affinity” read -0.0287 z-score.
`ATAGATTTCAGTTCCGATTAGTGCTAG` — result for “fitted relative affinity”: 2.06 z-score.
For `TTAGGTCTCGGTTTCGATTAGTGCTAG`, “fitted relative affinity” read 5.52 z-score.
Under “fitted relative affinity”, `GACGTTTCCGGTTTCGGGACGTGCTAG` is recorded as 6.72 z-score.
For `CTCGGTTTCCAAATTGTCTCGTGCTAG`, “fitted relative affinity” read 3.4 z-score.
`TCATCTTCCCCTCTCTTACTGTGCTAG`: “fitted relative affinity” 2.68 z-score.
Under “fitted relative affinity”, `GCCAAACACCCACATTCACCGTGCTAG` is recorded as 1.13 z-score.
For `GGACACGGATGCGGTCTGCCGTGCTAG`, “fitted relative affinity” read -0.403 z-score.
`TTAGGTTTCTTTTTCCTTTAGTGCTAG` — result for “fitted relative affinity”: 4.75 z-score.
Under “fitted relative affinity”, `TTAAGACTGCTTTTCCTTTAGTGCTAG` is recorded as 1.37 z-score.
For `TACTGTGTGCATCTATCTTAGTGCTAG`, “fitted relative affinity” read 0.729 z-score.
Under “fitted relative affinity”, `TTAGTTATCGGGACTGGGTTAGTGCTA` is recorded as 0.17 z-score.
`CTACTTCTGTTTTTGCTTTCGTGCTAG` — result for “fitted relative affinity”: 5 z-score.

Study 3 — technique: EMSA with sequencing; form: double-stranded DNA, one strand shown; medium: in vitro; concentration: 10 and 20 nM; relative to: negative control set to 0; reading: higher = stronger binding
Target: Hepatocyte nuclear factor 3-alpha (Foxa1, Mus musculus, UniProt P35582, residues 1-468, full length assumed)
UniProt P35582, sequence (whole entry, looked up): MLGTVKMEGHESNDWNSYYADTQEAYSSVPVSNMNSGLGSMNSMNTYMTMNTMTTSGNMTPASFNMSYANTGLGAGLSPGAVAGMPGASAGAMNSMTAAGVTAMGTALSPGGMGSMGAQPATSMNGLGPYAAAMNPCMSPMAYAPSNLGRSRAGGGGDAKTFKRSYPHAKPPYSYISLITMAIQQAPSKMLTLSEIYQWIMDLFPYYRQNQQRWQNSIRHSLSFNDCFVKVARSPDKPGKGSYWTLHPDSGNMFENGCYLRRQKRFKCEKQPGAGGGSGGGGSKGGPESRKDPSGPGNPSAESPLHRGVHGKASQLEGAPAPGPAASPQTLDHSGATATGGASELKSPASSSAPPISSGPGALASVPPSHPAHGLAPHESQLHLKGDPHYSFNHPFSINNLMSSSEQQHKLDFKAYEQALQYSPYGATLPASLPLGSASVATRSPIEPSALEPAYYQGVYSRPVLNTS
Notes: whole designed probe, mean of two concentrations, ends assumed
`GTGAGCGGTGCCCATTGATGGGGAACATCCACGAACCTGGCCCTGTCTGGTAACCACAGTGAACCATCGCAAGATACAGCACTATGTGCCCAGTTGGGCTGGTAATGACTCACAAATGTGTCAACACTGGCACATCCTCAGGGACACGGAAGTGTACTTGTTTTTGGAGAGGGACTAGACCTTCATCCTTGAGGTGAAGAAGATTTTCTCTCCAGGGTGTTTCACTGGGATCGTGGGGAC` — result for “normalised bound fraction”: 0.0395 ratio.
For `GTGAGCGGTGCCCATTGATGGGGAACAAAATACCTACTGAAATTAAAATACCAGGATAGGACAAAATGATCTTTGATGTTGTTTCCAATTATCTCGTGTTTGTTCTAGGCACTGGCTATGTCATCTAAGCTTCGCCTTTTTTTTTTTTTCATGGTGACACAACCATGGCTGTGTTCAGGTTTACATGTTCTTACTTGTGTATTGGGGAAGGTTGGCCCCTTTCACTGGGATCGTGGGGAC`, “normalised bound fraction” read 0.177 ratio.
For `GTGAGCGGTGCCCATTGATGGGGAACCAGAGAGTGTTTGCAGTTGTTCATCCTAAATTACACTGTTGTTTTAGCCTGTAGAGTGCTCAGAGCTGATTAATAAACAGAAATTAAGTCACTAAATTACTTTTTGCTTCAAATCACAGTGTGCGACTCGAGTGGTTGATATCTCACTGATATTTGTGAATGCGTGGATGAGTGACTGGATCTGCTTGTGTGTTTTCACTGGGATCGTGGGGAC`, “normalised bound fraction” read 0.138 ratio.
For `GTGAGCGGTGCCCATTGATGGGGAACACCTCATCTCAGGTATTTTCTGATGACGTATGTCTCAAGAAGAGTTCCTAGTAGCATCTGTGGTACCAGTTATGGAATTCTGAGTTTCTCTACAGATGACTTTTTCAAAGATCAGGGATCCAGGTCTAGCATCCTCACAATTTGTCTAAGTGCTGAATGAATGGAGTACTTAGAAAAGGCCTCTATTTAAGATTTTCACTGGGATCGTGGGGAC`, “normalised bound fraction” read 0.0356 ratio.
For `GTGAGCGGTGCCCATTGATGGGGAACATCTTCCCCCTCTTCCTTGCCCCACCAGCTCACCTTCCCGGGTTATTTGCACAAAGGAAAATAAATAAAGCCGGCATTCGTTAACGCAGTTCTGGCGCAAACTGCTGTTTGCTCTGCATGAATCATGGTCCTTACGCGAGGCGTGGCTCCGGGAGAGCAAAGCACCGTGTCAGGCGCATGATCCGGGCTCGCCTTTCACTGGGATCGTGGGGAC`, “normalised bound fraction” read 0.385 ratio.

Study 4 — technique: RNA Bind-n-Seq; form: RNA; medium: in vitro; concentration: 200 nM; notes: whole 134-nt RNA, ends assumed; with: 150 mM LiCl; relative to: input library; reading: higher = stronger binding; each molecule: 7-deaza-guanosine replaces G
Target: Ras GTPase-activating protein-binding protein 1, full length (G3BP1, Homo sapiens, UniProt Q13283)
UniProt Q13283, sequence (whole entry, looked up): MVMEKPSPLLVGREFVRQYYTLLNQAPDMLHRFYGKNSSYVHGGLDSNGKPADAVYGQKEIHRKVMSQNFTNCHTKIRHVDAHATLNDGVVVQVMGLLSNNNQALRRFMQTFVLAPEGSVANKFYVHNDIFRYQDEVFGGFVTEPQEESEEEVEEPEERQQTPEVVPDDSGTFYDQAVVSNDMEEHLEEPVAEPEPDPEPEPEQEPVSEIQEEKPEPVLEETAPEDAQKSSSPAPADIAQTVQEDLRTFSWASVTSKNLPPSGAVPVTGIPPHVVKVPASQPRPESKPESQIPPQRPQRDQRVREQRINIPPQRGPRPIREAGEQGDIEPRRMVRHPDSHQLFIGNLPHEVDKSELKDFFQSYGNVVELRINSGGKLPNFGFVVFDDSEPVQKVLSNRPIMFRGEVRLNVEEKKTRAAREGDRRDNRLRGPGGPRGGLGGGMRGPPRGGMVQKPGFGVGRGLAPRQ
The log2 enrichment of `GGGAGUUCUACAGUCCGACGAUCCCUCAAGUCCUGUGCUACACAUCGUAUGUACCGAAUCGGAAGGAAGGGGAAGGAAAGUAUUAUGUUACGCCGUUCGGAUCUGCACUUCCAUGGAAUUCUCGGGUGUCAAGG` is reported as -0.476.
For `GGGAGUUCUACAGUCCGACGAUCUAACUUUAGAGGAGGAUCUGAUGGAUAUGGCAGUGGUCGUGGAUUUGGGGAUGGCUAUAAUGGGUAUGGAGGAGGACCUGGAGGUGGCAAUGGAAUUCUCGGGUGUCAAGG`, the log2 enrichment was -0.267.
With `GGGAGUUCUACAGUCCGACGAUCCAAGUCCUGUGCUACACAUCGUAUGUACCGAAUCGGGCCCGGGCCCGGGGCCCGGGAAAGUAUUAUGUUACGCCGUUCGGAUCUGCACUUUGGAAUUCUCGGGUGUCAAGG` the log2 enrichment was -1.57.
`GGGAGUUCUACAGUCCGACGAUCCUCAAGUCCUGUGCUACACAUCGUAUGUACCGAAUCGGGAGGGUUUGGGUGGGAAAGUAUUAUGUUACGCCGUUCGGAUCUGCACUUCCAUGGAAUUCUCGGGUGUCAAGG` has a log2 enrichment of -0.561.
For `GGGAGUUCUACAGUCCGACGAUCUUAUAAUUGAUGAUCAUCCUGAAGUAACAGUAAUUGAAGAUCCCCAGUCAAAUUUGAAUGAUGAUGGUUUUACUGAAGUGGUAUCCAAAAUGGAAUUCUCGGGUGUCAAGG`, the log2 enrichment was -2.03.
With `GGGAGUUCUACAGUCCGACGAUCGUCCUGUGCUACACAUCGUAUGUACCGAAUCGGGGAGGGGUUUUUUUGGGGAAAGGGGAAAGUAUUAUGUUACGCCGUUCGGAUCUGCACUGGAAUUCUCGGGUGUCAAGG` the log2 enrichment was 0.657.

Study 5 — target: UBE2V2 UBC core domain (UniProt Q15819); technique: yeast two-hybrid; medium: yeast; notes: mostly zero background; relative to: not given; reading: higher = stronger interaction
B1: TRIM28 RING domain (UniProt Q13263); chain GAEALELLEHCGVCRERLRPEREPRLLPCLHSACSACLGPAAPAAANSSGDGGAAGDGTVVDCPVCKQQCFSKDIVE
B2: TRIM47 RING domain (UniProt Q96LD4); chain MDGSGPFSCPICLEPLREPVTLPCGHNFCLACLGALWPHRGASGAGGPGGAARCPLCQEPFPDGLQLR
B3: TRIM68 RING domain (UniProt Q6AZZ1); chain LVEAIVEEVACPICMTFLREPMSIDCGHSFCHSCLSGLWEIPGESQNWGYTCPLCRAPVQPRNLRP
B4: TRIM2 RING domain (UniProt Q9C040); chain VRQIDKQFLICSICLERYKNPKVLPCLHTFCERCLQNYIPAHSLTLSCPVCRQTSILPEKGV
B5: RFPL3 RING domain (UniProt O75679); chain MAALFQEASSCPVCSDYLEKPMSLECGCTVCLKCINSLQKEPHGEDLLCCCCSMVSQRNKIRP
Target sequence (chain): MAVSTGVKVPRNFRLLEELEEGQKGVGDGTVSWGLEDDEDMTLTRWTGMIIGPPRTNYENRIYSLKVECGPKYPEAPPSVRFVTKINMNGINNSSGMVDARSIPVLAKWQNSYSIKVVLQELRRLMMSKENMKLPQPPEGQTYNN
For `B1 (TRIM28 RING domain)`, “lacZ reporter activity” read 0.
`B2 (TRIM47 RING domain)`: “lacZ reporter activity” 0.
`EIKDYKARLTCPCCNMRKKDAVLTKCFHVFCFECVKTRYDTRQRKCPKCNAAFGANDFHR (RNF20 RING domain (UniProt Q5VTR2))` — result for “lacZ reporter activity”: 0.
Under “lacZ reporter activity”, `PLRRLQEEKLCKICMDRHIAVVFIPCGHLVTCKQCAEAVDRCPMCSAVIDFKQRVF (BIRC8 RING domain (UniProt Q96P09))` is recorded as 0.
`EDVLSKDAGECAICLEELQQGDTIARLPCLCIYHKGCIDEWFEVNRSCPEHPSD (ZNRF2 RING domain (UniProt Q8NHG8))` — result for “lacZ reporter activity”: 0.
For `B3 (TRIM68 RING domain)`, “lacZ reporter activity” read 0.
For `SNNDLASLFECPVCFDYVLPPILQCQSGHLVCSNCRPKLTCCPTCRGPLGSIRNLA (SIAH1 RING domain (UniProt Q8IUQ4))`, “lacZ reporter activity” read 0.
For `MEEMEEELKCPVCGSFYREPIILPCSHNLCQACARNILVQTPESESPQSHRAAGSGVSDY (TRIM9 RING domain (UniProt Q9C026))`, “lacZ reporter activity” read 0.
For `B4 (TRIM2 RING domain)`, “lacZ reporter activity” read 0.
Under “lacZ reporter activity”, `KITELNPHLMCALCGGYFIDATTIVECLHSFCKTCIVRYLETNKYCPMCDVQVHKTRPLL (PCGF2 RING domain (UniProt P35227))` is recorded as 0.
Under “lacZ reporter activity”, `B5 (RFPL3 RING domain)` is recorded as 0.

Some of these lines once more (study 5):
`B2 (TRIM47 RING domain)`: “lacZ reporter activity” 0.
`EIKDYKARLTCPCCNMRKKDAVLTKCFHVFCFECVKTRYDTRQRKCPKCNAAFGANDFHR (RNF20 RING domain (UniProt Q5VTR2))` — result for “lacZ reporter activity”: 0.
Under “lacZ reporter activity”, `PLRRLQEEKLCKICMDRHIAVVFIPCGHLVTCKQCAEAVDRCPMCSAVIDFKQRVF (BIRC8 RING domain (UniProt Q96P09))` is recorded as 0.
`EDVLSKDAGECAICLEELQQGDTIARLPCLCIYHKGCIDEWFEVNRSCPEHPSD (ZNRF2 RING domain (UniProt Q8NHG8))` — result for “lacZ reporter activity”: 0.
For `B3 (TRIM68 RING domain)`, “lacZ reporter activity” read 0.
